{"data": "Measured values collected from several papers", "note": "Numbered parts are unrelated; each lists some results of a single study. Substitutions count along the parent as printed."}
{"data": "Set 1", "target": "Sal-like protein 4, full length isoform A (SALL4, Homo sapiens, UniProt Q9UJQ4, residues 1-1053)", "method": "universal PBM", "form": "double-stranded DNA, one strand shown", "medium": "in vitro", "tested at": "600 nM", "notes": "8-mer, flanks averaged, mean of replicates", "reading": "higher = stronger binding", "UniProt Q9UJQ4, sequence (whole entry, looked up)": "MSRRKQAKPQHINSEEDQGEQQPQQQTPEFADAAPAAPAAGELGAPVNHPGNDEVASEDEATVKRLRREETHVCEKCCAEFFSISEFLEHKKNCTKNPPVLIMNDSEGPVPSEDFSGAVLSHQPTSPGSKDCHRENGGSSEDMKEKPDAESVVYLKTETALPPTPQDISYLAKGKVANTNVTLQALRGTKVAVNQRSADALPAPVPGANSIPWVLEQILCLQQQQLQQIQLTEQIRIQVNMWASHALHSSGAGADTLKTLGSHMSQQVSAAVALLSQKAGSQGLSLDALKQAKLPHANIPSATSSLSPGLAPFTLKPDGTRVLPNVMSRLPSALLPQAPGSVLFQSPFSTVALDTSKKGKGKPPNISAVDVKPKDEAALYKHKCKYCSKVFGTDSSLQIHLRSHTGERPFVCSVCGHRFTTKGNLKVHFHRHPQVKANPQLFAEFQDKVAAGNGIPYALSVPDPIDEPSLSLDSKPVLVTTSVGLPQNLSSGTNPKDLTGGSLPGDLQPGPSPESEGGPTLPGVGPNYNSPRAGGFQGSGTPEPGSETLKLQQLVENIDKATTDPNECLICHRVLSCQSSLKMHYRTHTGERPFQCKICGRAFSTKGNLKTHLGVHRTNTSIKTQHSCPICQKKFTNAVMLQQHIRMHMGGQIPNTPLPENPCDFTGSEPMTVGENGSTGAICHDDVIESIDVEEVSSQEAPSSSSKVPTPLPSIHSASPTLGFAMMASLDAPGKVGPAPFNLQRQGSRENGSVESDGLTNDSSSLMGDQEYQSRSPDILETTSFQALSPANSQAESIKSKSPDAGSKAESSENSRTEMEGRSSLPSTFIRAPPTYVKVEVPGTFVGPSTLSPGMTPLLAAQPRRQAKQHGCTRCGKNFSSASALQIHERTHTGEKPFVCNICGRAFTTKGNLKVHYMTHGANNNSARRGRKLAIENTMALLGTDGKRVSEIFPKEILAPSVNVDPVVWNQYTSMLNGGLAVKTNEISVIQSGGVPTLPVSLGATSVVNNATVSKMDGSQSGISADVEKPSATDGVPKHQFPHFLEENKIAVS"}
{"Sequence": "TGCAGCAA", "E-score": 0.0757}
{"Sequence": "CAGTGTCC", "E-score": -0.178}
{"Sequence": "GCAGAGCC", "E-score": -0.263}
{"Sequence": "ATAGCCTG", "E-score": -0.00139}
{"Sequence": "AACCCGAG", "E-score": -0.241}
{"Sequence": "ATGGATTA", "E-score": 0.156}
{"Sequence": "AAAATAGG", "E-score": 0.287}
{"Sequence": "ACATCGAT", "E-score": 0.142}
{"Sequence": "GGGGCAAA", "E-score": -0.172}
{"Sequence": "CACCATCC", "E-score": -0.22}
{"Sequence": "ATGCAAAG", "E-score": 0.144}
{"Sequence": "CAACTCCA", "E-score": -0.0957}
{"Sequence": "CCTCGTAG", "E-score": -0.0223}
{"Sequence": "CAGAGTTC", "E-score": -0.169}
{"data": "Set 2", "target": "CCND3, cyclin fold, Cln2 fusion (human)", "method": "yeast growth competition, sequencing", "medium": "yeast", "notes": "weak parent motif", "relative to": "not given", "reading": "higher = stronger binding", "starting sequence": "LLGL2 docking peptide (human); KSLKKSLRQSFRR; partner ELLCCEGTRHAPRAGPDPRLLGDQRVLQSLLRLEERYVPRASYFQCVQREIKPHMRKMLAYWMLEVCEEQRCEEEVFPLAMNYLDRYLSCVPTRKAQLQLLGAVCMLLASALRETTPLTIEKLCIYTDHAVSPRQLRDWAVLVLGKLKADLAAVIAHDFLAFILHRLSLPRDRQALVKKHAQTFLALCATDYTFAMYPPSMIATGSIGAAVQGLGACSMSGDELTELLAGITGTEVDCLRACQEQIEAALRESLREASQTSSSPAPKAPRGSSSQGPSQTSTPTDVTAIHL"}
{"Variant": "KSLAKSLRQSFRR [K4A]", "normalised enrichment score": 0.445}
{"Variant": "KSLKKSLRASFRR [Q9A]", "normalised enrichment score": 0.797}
{"Variant": "KALKKSLRQSFRR [S2A]", "normalised enrichment score": 0.662}
{"Variant": "ASLKKSLRQSFRR [K1A]", "normalised enrichment score": 0.0144}
{"Variant": "KSLKKSLRQSFRA [R13A]", "normalised enrichment score": 0.443}
{"Variant": "KSLKASLRQSFRR [K5A]", "normalised enrichment score": 0.217}
{"data": "Set 3", "target": "Interferon regulatory factor 3, full length, phosphomimetic (IRF3, Homo sapiens, UniProt Q14653, residues 1-427, S386D/S396D/S398D/S402D/T404D/S405D)", "method": "protein-binding microarray", "form": "double-stranded DNA, one strand shown", "medium": "in vitro", "tested at": "2540 nM top", "notes": "60-bp whole probe", "together with": "salmon DNA 0.4 mg/ml", "relative to": "random background probes", "reading": "higher = stronger binding", "constant ends, left off below": "GCCTAGCAC … GTCTTGATTCGCTTGACGCTGCTG", "Residues (chain)": "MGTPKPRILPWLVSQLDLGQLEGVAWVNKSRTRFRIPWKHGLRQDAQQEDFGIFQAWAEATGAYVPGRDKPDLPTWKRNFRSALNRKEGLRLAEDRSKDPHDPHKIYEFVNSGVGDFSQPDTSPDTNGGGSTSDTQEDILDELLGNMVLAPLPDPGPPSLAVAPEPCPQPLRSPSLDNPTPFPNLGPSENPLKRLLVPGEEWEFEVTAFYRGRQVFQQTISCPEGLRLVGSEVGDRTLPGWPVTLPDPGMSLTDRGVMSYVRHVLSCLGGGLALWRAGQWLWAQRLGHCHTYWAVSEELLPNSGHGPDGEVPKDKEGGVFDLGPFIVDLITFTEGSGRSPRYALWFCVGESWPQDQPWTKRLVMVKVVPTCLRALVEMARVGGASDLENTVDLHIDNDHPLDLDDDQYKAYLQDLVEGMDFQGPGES"}
{"Sequence": "TTAGATTTCAGTTTAGATTAGTGCTAG", "fitted relative affinity [z-score]": 2.91}
{"Sequence": "TCAGTTTTCTTTTCCATTTTGTGCTAG", "fitted relative affinity [z-score]": 7.55}
{"Sequence": "TTAGATATCGGGACTGGATCAGTGCTA", "fitted relative affinity [z-score]": 0.0497}
{"Sequence": "TTAGAACTGGGTACTGGATTAGTGCTA", "fitted relative affinity [z-score]": -0.667}
{"Sequence": "GACGGTTTCGGTTCCGGGTCGTGCTAG", "fitted relative affinity [z-score]": 10.5}
{"Sequence": "GACGGACTGCTTATCCTAACGTGCTAG", "fitted relative affinity [z-score]": 0.0422}
{"Sequence": "GACGATATCGGGCATCGAGACGTGCTA", "fitted relative affinity [z-score]": -0.324}
{"Sequence": "TTAGAACTGAGTTTCGCTTAGTGCTAG", "fitted relative affinity [z-score]": 1.96}
{"Sequence": "GACCTTCACCTCTCTGTCCCCGTGCTA", "fitted relative affinity [z-score]": 0.0942}
{"Sequence": "GACTATATCGGGACTGGAGACGTGCTA", "fitted relative affinity [z-score]": 0.163}
{"Sequence": "TATTTTCCTTTAAACTTTTAGTGCTAG", "fitted relative affinity [z-score]": 5.14}
{"Sequence": "TCATTTCTCTTTCCTTCACTGTGCTAG", "fitted relative affinity [z-score]": 4.24}
{"Sequence": "GACGGTATCCTACTGCTTACGTGCTAG", "fitted relative affinity [z-score]": 2.54}
{"Sequence": "TTATATCTCAGTATCGATTAGTGCTAG", "fitted relative affinity [z-score]": 1.37}
{"data": "Other studies, line by line"}
{"Substance": "PhoQ, residues 284 288 289 292 302 303 SNGLAW", "target": "PhoP, residues 12 14 15 18 19 NHFIF (Escherichia coli, UniProt P23836)", "test": "Sort-seq, item: YFP reporter", "test system": "E. coli", "conditions": "PhoQ-PhoP variant library, together with: 10 µM Mg2+", "how to read": "relative to: high Mg2+ state, higher = stronger signaling", "measurement": "fold induction", "result": 13}
{"note": "Excerpt of the above (set 1):"}
{"Sequence": "CACCATCC", "E-score": -0.22}
{"Sequence": "ATGCAAAG", "E-score": 0.144}
